{"data": "Measured values of several laboratories", "note": "Protocols differ between the studies behind these lines. Several values in a cell are separate wells, animals, samples, runs or records. ± marks the error that the study gave.", "sequence of UniProt P23443 (whole entry, looked up)": "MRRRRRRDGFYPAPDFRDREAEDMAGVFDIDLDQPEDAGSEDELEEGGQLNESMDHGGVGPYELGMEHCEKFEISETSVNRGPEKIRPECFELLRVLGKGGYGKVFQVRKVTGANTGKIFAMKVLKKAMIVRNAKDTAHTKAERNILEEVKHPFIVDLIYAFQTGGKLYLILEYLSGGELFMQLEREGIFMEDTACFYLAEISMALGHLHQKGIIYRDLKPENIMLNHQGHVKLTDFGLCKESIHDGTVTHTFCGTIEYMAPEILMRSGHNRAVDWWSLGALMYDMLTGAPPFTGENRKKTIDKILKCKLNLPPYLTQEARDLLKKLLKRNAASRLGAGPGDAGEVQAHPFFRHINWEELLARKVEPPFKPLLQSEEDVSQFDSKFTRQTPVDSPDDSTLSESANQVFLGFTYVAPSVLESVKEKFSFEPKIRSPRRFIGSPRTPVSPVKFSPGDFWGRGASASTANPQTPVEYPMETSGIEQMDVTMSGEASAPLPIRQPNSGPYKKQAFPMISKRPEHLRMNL"}
{"Structure (SMILES)": "CN[C@@H]1[C@H](O)[C@H](NC)[C@H]2O[C@]3(O)[C@H](O[C@@H]2[C@H]1O)O[C@H](C)C[C@H]3NC(=O)Cc1ccc(Cl)cn1", "target or system": "Streptococcus pyogenes", "test": "microbial growth, broth dilution", "test system": "ATCC700294", "quantity": "MIC", "value": "25 µg/mL"}
{"Structure (SMILES)": "O=C(NNc1ccc(Cl)cc1)c1nnc(CC23CC4CC(CC(C4)C2)C3)o1", "target or system": "Fusarium graminearum", "test": "fungal growth, inhibitor", "conditions": "50 µg/mL", "quantity": "inhibition", "value": "100%"}
{"Structure (SMILES)": "CC(C)CC(C(=O)N1CC2(CC1C#N)C(=O)Nc1ccccc12)N(C)C(=O)c1cc2c(F)cc(F)c(F)c2[nH]1 (stereo not drawn)", "target or system": "Human coronavirus 229E", "test": "cytopathic effect", "test system": "MRC5", "conditions": "1.99 nM", "quantity": "inhibition", "value": "42.1%"}
{"Structure (SMILES)": "Cc1ccc(CNC(=O)C(=O)c2c(C)nc3ccc(C)cn23)cc1", "target or system": "Mycobacterium avium", "test": "microbial growth", "conditions": "6 days", "quantity": "MIC", "value": "> 128 µM"}
{"Structure (SMILES)": "CN(C)[C@H]1C[C@@]23CC[C@@]4(O2)C(=CC[C@]2(C)[C@@H](c5ccc6ccncc6c5)CC[C@H]24)C=C3[C@@H](O)[C@@H]1O", "target or system": "Ribosomal protein S6 kinase beta-1 (RPS6KB1, Homo sapiens, UniProt P23443)", "test": "ATP probe labelling, inhibitor, KiNativ profiling", "conditions": "0.1 µM", "quantity": "inhibition", "value": "-15.5%"}
{"Structure (SMILES)": "CN[C@@H]1[C@H](O)[C@H](NC)[C@H]2O[C@]3(O)[C@H](O[C@@H]2[C@H]1O)O[C@H](C)C[C@H]3NC(=O)Cc1ccccn1", "target or system": "Proteus vulgaris", "test": "microbial growth, broth dilution", "test system": "ATCC33420", "quantity": "MIC", "value": "> 200 µg/mL"}
{"Structure (SMILES)": "Cc1ccc2nc(C)c(C(=O)C(=O)N(C)C)n2c1", "target or system": "Mycobacterium kansasii", "test": "microbial growth", "conditions": "6 days", "quantity": "MIC", "value": "> 128 µM"}
{"Structure (SMILES)": "COc1ccccc1-c1n[nH]c2nc(NC3CCN(C(=O)Cc4ccc(F)cc4F)CC3)ncc12", "test": "bead binding, competition bead pull-down, item: LINJ.30.0990", "test system": "Leishmania donovani axenic amastigote extract", "conditions": "10 µM", "how to read": "relative to: vehicle", "quantity": "relative abundance", "value": 0.94}
{"Structure (SMILES)": "CN[C@@H]1[C@H](O)[C@H](NC)[C@H]2O[C@]3(O)[C@H](O[C@@H]2[C@H]1O)O[C@H](C)C[C@H]3NC(=O)Cc1cc(Cl)ccn1", "target or system": "Streptococcus pyogenes", "test": "microbial growth, broth dilution", "test system": "ATCC700294", "quantity": "MIC", "value": "25 µg/mL"}
{"Structure (SMILES)": "COc1ccccc1-c1n[nH]c2nc(N[C@H]3CC[C@H](NS(=O)(=O)CC(C)C)CC3)ncc12", "test": "bead binding, competition bead pull-down, item: LINJ.06.1110", "test system": "Leishmania donovani extract", "conditions": "10 µM", "how to read": "relative to: vehicle", "quantity": "relative abundance", "value": 0.6}
{"Structure (SMILES)": "O=C(NNc1ccccc1)c1nnc(C23CC4CC(CC(C4)C2)C3)o1", "target or system": "Fusarium graminearum", "test": "fungal growth, inhibitor", "conditions": "50 µg/mL", "quantity": "inhibition", "value": "54.2 ± 2.6%"}
{"Structure (SMILES)": "O=C1NC2(CC2)COc2ncc(F)cc2[C@H]2COCCN2c2ccn3ncc1c3n2", "test system": "Sprague-Dawley rat, female, liver", "conditions": "oral, 10 mg/kg/day, 4 weeks dosing, end of recovery", "quantity": "organ-to-brain weight ratio", "value": "450 ± 66.4%"}
{"Structure (SMILES)": "CC(C)(C)C(=O)OCOP(=O)(OCOC(=O)C(C)(C)C)C1CCCN(O)C1=O (stereo not drawn)", "target or system": "UACC-257", "quantity": "TGI", "value": "13.5 µM"}
{"Structure (SMILES)": "Cc1cc(Oc2nc(N3CC[C@@H](c4ccncc4)C3)ncc2F)[nH]n1", "target or system": "Mycobacterium tuberculosis", "test": "OD", "test system": "H37Rv PurF CRISPRi knockdown", "conditions": "0.003906 µM, with: anhydrotetracycline low", "quantity": "normalised growth", "value": "14% and 13%"}
{"Structure (SMILES)": "CCc1ccn2c(C(=O)NCc3ccc(C)cc3)c(C)nc2c1", "target or system": "Mycobacterium kansasii", "test": "microbial growth", "conditions": "6 days", "quantity": "MIC", "value": "6.1 µM"}
